Experimental data collected from several papers.
Every numbered part comes from another study and shows a few of its results, in no order. Substitutions count along the parent as printed.

Series 1 — method: protein binding microarray; molecule type: double-stranded DNA, one strand shown; medium: in vitro; tested at: not given; relative to: not given; reading: higher = stronger binding; endpoint: E-score
Target: Histone acetyltransferase KAT6A, winged helix 1, GST fusion (KAT6A, Homo sapiens, UniProt Q92794, residues 1-85)
Setting: 8-mer, flanks averaged, mean of 2 arrays, mostly near background
Target sequence (chain): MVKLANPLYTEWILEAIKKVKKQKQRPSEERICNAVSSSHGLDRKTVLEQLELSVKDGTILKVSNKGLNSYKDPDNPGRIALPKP
Sequence = CACTGTAC; result = -0.077
Sequence = TGCGAGCA; result = -0.118
Sequence = ATTTTCGG; result = 0.0108
Sequence = GGCAGCCA; result = 0.0173
Sequence = AGCCATAA; result = -0.00865
Sequence = TCTCATAA; result = -0.161
Sequence = CAATACGG; result = 0.235
Sequence = AAGTAAGG; result = -0.328
Sequence = ACCAAATG; result = -0.227
Sequence = ACCGTGTA; result = -0.0155
Sequence = GCTTGAAC; result = -0.00656
Sequence = ACCACCGT; result = 0.16
Sequence = ACTTTTCA; result = -0.221
Sequence = AGTCGAAA; result = -0.242
Sequence = AATGGATA; result = -0.194
Sequence = CAGTAGGC; result = -0.235

Series 2 — method: EMSA with sequencing; molecule type: double-stranded DNA, one strand shown; medium: in vitro; tested at: 10 and 20 nM; relative to: negative control set to 0; reading: higher = stronger binding; endpoint: normalised bound fraction
Target: Hepatocyte nuclear factor 3-alpha (Foxa1, Mus musculus, UniProt P35582, residues 1-468, full length assumed)
UniProt P35582, sequence (whole entry, looked up): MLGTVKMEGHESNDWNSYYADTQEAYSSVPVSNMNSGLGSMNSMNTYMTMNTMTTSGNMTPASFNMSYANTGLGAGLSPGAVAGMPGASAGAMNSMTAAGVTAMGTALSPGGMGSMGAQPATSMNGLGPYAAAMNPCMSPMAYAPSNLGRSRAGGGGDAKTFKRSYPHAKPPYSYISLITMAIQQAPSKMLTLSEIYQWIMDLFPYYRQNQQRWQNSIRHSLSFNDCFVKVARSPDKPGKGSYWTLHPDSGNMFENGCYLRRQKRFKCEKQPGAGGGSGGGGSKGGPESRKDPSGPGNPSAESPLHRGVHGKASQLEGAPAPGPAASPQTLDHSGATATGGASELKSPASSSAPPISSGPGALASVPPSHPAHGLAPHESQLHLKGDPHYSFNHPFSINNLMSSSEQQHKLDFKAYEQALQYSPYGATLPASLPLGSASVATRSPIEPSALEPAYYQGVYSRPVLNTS
Setting: whole designed probe, mean of two concentrations, ends assumed
All sequences stand within: GTGAGCGGTGCCCATTGATGGGGAAC … TTTCACTGGGATCGTGGGGAC
Sequence = TTTGCAAAAAATAACACAACCCTTTTCACACAGCTATCTTTCAGCTGGAAGTGACGAAGCTACATAATTCTGACAAATGAAACGTAAGTGCTTGTTTACTCTGTGGTTTTTGGGCAAGCATATCCTTCCATGATATGCATGTTGTCTCTTCCCTCCTCCTTCTTCTCTGCAATGGAAGATCATTGTGATACTT; result = 0.353 ratio
Sequence = ATCTTCCCCCTCTTCCTTGCCCCACCAGCTCACCTTCCCGGGTTATTTGCAGATAGGAAAATAAATAAAGCCGGCATTCGTTAACCCTCTTCTGGCGCAAACTGCTGTTTGCTCTGGATGAATCATGGTCCTTTGGCGACGCCAGGCTCCGGGAGAGCAAAGCACCGTAGCCGAGTGCTGATCCGGGGTGGCC; result = 0.338 ratio
Sequence = ATATACTCTGGAGCCCCTCCAGTGAATTCTTCATATCGGTTGTACTTTCCAACTCCAGGATTTCCTTTTGGTTCTTTTTCATAATTTCTCTCTTGTTTATCTTGAGGACTCTCTATTTGATGAGCCATTGTCATCATACTTTTCTTTATCTCTTTAAGTACAGTCATAGGCAGTTTTTATCACTTGCCTTTTT; result = 0.202 ratio
Sequence = CATTAGAGTCAAAGTTGTTAAGGGGAGCTAGTCATAGCTACCACGTGGCCAGGCATGTATGAATCATCAGGAACCAGACACCAGGCACATAAAGTAAATAGATGAATAATGCTGACAACCTAGTTCATAGTGACACACTACTTGAGATATATAGAATAACATTATTACCCAGTAAGTATGTGAACATTCCGAT; result = 0.381 ratio
Sequence = TTTCTTTAAAGTCCATTAACTTTACTTAAGAATACATCCTGGTATTGGTCATTCTTGATATTCTCAGGTACACAGTGTATTTATTTATTTATTAAATTACTTTTGAGATGAAGTCTCGCTCTGTCACCCAGGCTGGAGTGCAGTGGCACGATCTTGGCTCACTGCAACCTCCACCTCCTGGGTTCAAACAATT; result = 0.394 ratio

Series 3 — method: DHFR PCA, deep sequencing; medium: yeast; with: (+)-ABA 0.39 µM; relative to: wild-type fitted maximum; reading: higher = stronger binding; endpoint: relative binding score
Target: ABI1, truncated, D143A, DHFR fusion (Arabidopsis thaliana)
Setting: methotrexate growth selection, single substitutions
Parent: PYL1, truncated, DHFR fusion (Arabidopsis thaliana); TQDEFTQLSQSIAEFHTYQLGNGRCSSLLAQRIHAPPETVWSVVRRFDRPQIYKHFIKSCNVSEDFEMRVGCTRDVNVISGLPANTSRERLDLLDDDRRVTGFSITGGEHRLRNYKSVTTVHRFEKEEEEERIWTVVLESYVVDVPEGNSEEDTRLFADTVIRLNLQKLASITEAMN; partner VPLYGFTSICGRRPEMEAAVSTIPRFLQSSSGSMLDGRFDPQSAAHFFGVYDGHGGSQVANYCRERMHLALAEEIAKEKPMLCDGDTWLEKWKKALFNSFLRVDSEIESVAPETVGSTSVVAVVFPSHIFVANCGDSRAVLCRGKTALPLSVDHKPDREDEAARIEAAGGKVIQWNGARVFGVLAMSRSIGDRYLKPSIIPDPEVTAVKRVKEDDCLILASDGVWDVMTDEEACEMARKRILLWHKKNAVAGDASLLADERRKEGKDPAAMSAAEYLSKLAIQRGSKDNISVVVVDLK
Substitution = K54S; result = -13.3%
Substitution = S140Y; result = 4.34%
Substitution = T119S; result = -7.48%
Substitution = Y53F; result = 4.06%
Substitution = S9T; result = 46.6%
Substitution = S171K; result = 57%
Substitution = E109M; result = -3.24%
Substitution = M68R; result = -3.72%
Substitution = E89C; result = -5.49%
Substitution = L93H; result = 17.6%
Substitution = R163C; result = 1.08%
Substitution = I33M; result = 3.91%
Substitution = A175H; result = 30%
Substitution = T73W; result = 25.2%
Substitution = Y115W; result = -1.33%
Substitution = Y53A; result = -5.16%
Substitution = V43K; result = -9.21%
Substitution = F157T; result = 8.77%
Substitution = G23L; result = 3.13%
Substitution = A175M; result = 29.9%
Substitution = C25W; result = 1.78%

Series 4 — target: CCNA1, cyclin fold, Cln2 fusion (human); method: yeast growth competition, sequencing; medium: yeast; setting: weak parent motif; relative to: not given; reading: higher = stronger binding; endpoint: normalised enrichment score
Parent: WEE1 docking peptide (human); HKTFRKLRLFDTP
Substitution = HKTARKLRLFDTP [F4A]; result = 0.286
Substitution = HKTFRKLRVFDTP [L9V]; result = 0.365
Substitution = HATFRKLRLFDTP [K2A]; result = 0.333
Substitution = HKTFRKLELFDTP [R8E]; result = 0.598
Substitution = HKTFRRLRLFDTP [K6R]; result = 0.224
Substitution = HKTFRKLRLFYTP [D11Y]; result = -0.236
Substitution = HKTFYKLRLFDTP [R5Y]; result = 0.0896
Substitution = HKTFRKCRLFDTP [L7C]; result = 0.622
Substitution = QKTFRKLRLFDTP [H1Q]; result = 0.597
Substitution = HKTFQKLRLFDTP [R5Q]; result = 0.243
Substitution = HKTFRKLRLFDTI [P13I]; result = 0.381
Substitution = HKTFRKLRLWDTP [F10W]; result = 0.202
Substitution = HKTFRKFRLFDTP [L7F]; result = 0.143
Substitution = HKTFCKLRLFDTP [R5C]; result = -0.114
Substitution = HSTFRKLRLFDTP [K2S]; result = 0.0526
Substitution = HKTFRKLRLFCTP [D11C]; result = 0.499
Substitution = HKTFRDLRLFDTP [K6D]; result = 0.46
Substitution = HKTFMKLRLFDTP [R5M]; result = 0.286
Substitution = HDTFRKLRLFDTP [K2D]; result = 0.317
Substitution = HKTFWKLRLFDTP [R5W]; result = 0.207
Substitution = HKTTRKLRLFDTP [F4T]; result = 0.544
Substitution = HKTFRKLRQFDTP [L9Q]; result = 0.726
Substitution = HKTFRKLRKFDTP [L9K]; result = 0.411
Substitution = HHTFRKLRLFDTP [K2H]; result = -0.0219
Substitution = HKTFRKLTLFDTP [R8T]; result = 0.369

Series 5 — method: protein-binding microarray; molecule type: double-stranded DNA, one strand shown; medium: in vitro; tested at: 250 nM; setting: 60-bp whole probe; with: salmon DNA 0.4 mg/ml; relative to: random background probes; reading: higher = stronger binding; endpoint: log fluorescence; all sequences stand within: GCCTAGCAC … GTCTTGATTCGCTTGACGCTGCTG
Target: Interferon regulatory factor 5, full length, phosphomimetic (IRF5, Homo sapiens, UniProt Q13568-2, residues 1-514, K96S/S451D/S453D/S456D/S462D)
Sequence = TTAGAATTGAGTCTCGATTAGTGCTAG; result = 0.938 z-score
Sequence = TTTCATTTTTTTTCATCATTGTGCTAG; result = 8.92 z-score
Sequence = TCAACAATTTCAGATTCCACTGTGCTA; result = 1.11 z-score
Sequence = TTAGGTCTCCTTATCCTTTCGTGCTAG; result = 0.389 z-score
Sequence = GTAGGTATCCTTCTCCTTTAGTGCTAG; result = -0.000641 z-score
Sequence = TTAGGTTTCGGACTTGGTTAGTGCTAG; result = 4.8 z-score
Sequence = GACGATATTAGACTGGAGACGTGCTAG; result = 0.475 z-score
Sequence = GACGAACAGAGACTGGAGACGTGCTAG; result = -0.166 z-score
Sequence = TTAGAACTGAGATTCGATTAGTGCTAG; result = 0.698 z-score
Sequence = CTTTTATTTTTTTTATTTATGTGCTAG; result = 1.55 z-score
Sequence = TTCGGTTTCGGTCTCGGTTAGTGCTAG; result = 10.3 z-score
Sequence = TAATATCTAAGATTCTAGCCGTGCTAG; result = 0.177 z-score
Sequence = TTAAAACTGAGTCTCGATTAGTGCTAG; result = 1 z-score
Sequence = TTAGGTTTCGGGACTGGGTCAGTGCTA; result = 6.27 z-score
Sequence = GACGGTCTCGGACTCGGGACGTGCTAG; result = -0.389 z-score
Sequence = TTAGGTTTCGGGTTTCGCTTAGTGCTA; result = 8.8 z-score
Sequence = CTCCTTCAGTATCCTTAGATGTGCTAG; result = 0.498 z-score
Sequence = GACGGACTCCTTCTCCTGACGTGCTAG; result = -0.434 z-score

Other studies, line by line
Molecule = PhoQ, residues 284 288 289 292 302 303 QWGLFV; target = PhoP, residues 12 14 15 18 19 NQGLL (Escherichia coli, UniProt P23836); assay = Sort-seq, measured: YFP reporter; test system = E. coli; conditions = PhoQ-PhoP variant library, with: 10 µM Mg2+; scale = relative to: high Mg2+ state, higher = stronger signaling; endpoint = fold induction; result = 2.21
